Assay results collected from several papers.
Protocols differ between the studies behind these lines. Several values in a cell are separate wells, animals, samples, runs or records. ± marks the error that the study gave.
Kir3.1/Kir3.4: Kir3.1/Kir3.4 (Homo sapiens, UniProt P48544+P48549)
Chain of UniProt P48549 (whole entry, looked up): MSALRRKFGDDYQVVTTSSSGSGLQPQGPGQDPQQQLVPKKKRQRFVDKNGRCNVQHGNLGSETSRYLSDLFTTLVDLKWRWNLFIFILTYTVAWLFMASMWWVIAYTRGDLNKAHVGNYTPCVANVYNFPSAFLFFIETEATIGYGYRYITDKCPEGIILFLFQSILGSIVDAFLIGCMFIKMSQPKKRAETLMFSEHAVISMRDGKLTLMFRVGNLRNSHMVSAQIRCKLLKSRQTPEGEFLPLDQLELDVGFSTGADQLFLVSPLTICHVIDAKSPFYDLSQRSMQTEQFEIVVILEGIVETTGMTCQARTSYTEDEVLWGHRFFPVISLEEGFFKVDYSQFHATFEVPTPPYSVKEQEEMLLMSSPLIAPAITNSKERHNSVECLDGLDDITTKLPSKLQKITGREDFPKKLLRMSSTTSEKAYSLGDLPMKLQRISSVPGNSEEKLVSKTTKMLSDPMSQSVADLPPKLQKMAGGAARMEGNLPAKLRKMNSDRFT
Chain of UniProt P48544 (whole entry, looked up): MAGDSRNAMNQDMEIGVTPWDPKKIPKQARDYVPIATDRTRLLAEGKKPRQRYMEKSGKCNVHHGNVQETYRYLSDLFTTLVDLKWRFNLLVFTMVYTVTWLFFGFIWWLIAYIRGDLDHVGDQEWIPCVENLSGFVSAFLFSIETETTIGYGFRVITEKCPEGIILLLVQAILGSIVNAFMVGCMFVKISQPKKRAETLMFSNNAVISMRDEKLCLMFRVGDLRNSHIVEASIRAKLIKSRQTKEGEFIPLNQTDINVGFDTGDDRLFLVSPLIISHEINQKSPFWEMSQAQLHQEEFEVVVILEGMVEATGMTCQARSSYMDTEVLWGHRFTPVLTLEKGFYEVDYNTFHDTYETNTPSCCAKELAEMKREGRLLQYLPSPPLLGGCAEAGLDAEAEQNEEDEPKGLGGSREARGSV
AKR1B1: Aldo-keto reductase family 1 member B1 (AKR1B1, Homo sapiens, UniProt P15121)
pyrD: Dihydroorotate dehydrogenase (quinone) (pyrD, Acinetobacter baumannii, UniProt B7GZW7)
Chain of UniProt B7GZW7 (whole entry, looked up): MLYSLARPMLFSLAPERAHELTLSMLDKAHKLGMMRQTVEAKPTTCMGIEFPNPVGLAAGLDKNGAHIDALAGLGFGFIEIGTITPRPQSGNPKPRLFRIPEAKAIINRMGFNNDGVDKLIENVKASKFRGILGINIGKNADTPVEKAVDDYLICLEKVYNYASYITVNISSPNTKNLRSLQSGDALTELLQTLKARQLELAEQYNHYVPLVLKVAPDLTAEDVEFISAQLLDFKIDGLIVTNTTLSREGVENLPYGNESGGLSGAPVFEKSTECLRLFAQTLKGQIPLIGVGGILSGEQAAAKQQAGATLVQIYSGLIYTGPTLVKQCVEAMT
MPO: Myeloperoxidase (MPO, Homo sapiens, UniProt P05164)
Chain of UniProt P05164 (whole entry, looked up): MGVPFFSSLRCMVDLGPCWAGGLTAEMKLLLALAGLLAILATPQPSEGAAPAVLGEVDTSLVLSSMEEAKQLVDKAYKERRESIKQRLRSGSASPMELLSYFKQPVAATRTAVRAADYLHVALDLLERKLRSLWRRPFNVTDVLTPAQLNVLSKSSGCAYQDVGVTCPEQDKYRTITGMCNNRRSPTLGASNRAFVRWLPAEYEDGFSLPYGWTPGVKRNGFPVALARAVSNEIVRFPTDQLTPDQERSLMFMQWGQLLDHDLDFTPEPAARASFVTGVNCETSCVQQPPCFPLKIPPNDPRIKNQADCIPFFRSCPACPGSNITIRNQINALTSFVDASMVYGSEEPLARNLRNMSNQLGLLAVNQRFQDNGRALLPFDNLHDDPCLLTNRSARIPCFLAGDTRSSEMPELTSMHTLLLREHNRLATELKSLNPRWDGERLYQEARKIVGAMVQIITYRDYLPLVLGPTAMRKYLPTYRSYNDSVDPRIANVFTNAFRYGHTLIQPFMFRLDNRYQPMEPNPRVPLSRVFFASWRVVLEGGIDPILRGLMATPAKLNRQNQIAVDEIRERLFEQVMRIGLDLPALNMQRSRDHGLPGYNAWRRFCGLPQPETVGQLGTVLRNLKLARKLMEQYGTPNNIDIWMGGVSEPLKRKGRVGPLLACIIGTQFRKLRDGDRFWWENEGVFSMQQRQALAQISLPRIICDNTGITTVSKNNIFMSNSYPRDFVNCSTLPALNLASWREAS
CDC28: Cyclin-dependent kinase 1 (CDC28, Candida albicans, UniProt P43063)
Chain of UniProt P43063 (whole entry, looked up): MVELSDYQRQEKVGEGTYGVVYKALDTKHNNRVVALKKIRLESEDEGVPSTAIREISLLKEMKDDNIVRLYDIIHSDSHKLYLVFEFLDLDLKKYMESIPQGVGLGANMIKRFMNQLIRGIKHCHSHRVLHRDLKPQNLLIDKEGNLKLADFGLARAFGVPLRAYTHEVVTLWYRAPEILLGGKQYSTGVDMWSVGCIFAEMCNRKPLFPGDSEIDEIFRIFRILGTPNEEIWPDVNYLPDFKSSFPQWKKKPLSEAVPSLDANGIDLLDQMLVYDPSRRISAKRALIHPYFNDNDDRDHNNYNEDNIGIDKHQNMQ
T1: riboswitch RNA yjdF aptamer A11G/A50G (Bacillus subtilis); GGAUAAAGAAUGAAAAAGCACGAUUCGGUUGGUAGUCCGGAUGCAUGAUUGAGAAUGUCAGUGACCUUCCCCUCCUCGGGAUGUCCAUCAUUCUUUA
T2: lysine riboswitch RNA, 2-aminopurine at 17 (Bacillus subtilis); chain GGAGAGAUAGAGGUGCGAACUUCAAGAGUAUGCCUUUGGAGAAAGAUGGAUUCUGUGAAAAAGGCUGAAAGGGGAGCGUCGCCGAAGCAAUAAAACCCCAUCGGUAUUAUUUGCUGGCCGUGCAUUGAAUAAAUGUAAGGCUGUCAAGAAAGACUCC; chain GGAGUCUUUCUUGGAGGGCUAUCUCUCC
Chain of UniProt P51575 (whole entry, unmodified, looked up): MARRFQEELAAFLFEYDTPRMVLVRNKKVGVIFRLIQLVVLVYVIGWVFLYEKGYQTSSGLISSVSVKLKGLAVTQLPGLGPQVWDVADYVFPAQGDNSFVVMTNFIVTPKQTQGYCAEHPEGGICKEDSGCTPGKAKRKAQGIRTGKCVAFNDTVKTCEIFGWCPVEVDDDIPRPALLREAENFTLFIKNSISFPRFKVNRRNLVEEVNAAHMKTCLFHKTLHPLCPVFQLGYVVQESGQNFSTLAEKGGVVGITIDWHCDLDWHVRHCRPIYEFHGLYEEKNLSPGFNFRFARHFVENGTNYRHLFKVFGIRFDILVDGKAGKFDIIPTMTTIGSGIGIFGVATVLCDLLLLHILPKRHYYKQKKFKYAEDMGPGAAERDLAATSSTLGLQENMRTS
Chain of UniProt Q92769 (whole entry, looked up): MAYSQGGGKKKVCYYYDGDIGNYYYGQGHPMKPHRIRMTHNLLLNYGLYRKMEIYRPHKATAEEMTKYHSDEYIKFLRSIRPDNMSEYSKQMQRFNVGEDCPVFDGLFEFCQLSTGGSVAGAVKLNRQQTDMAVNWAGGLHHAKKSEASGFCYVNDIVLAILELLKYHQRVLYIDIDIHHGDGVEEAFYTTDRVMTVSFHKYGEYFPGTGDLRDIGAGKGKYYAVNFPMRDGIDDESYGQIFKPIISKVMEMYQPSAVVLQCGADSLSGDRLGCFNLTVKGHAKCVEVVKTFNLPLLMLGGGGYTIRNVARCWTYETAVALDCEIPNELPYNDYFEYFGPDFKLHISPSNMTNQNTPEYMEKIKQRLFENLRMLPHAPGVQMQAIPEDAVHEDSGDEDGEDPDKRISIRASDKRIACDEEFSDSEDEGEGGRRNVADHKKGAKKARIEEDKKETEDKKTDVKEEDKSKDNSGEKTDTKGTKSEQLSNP
Chain of UniProt Q64663 (whole entry, unmodified, looked up): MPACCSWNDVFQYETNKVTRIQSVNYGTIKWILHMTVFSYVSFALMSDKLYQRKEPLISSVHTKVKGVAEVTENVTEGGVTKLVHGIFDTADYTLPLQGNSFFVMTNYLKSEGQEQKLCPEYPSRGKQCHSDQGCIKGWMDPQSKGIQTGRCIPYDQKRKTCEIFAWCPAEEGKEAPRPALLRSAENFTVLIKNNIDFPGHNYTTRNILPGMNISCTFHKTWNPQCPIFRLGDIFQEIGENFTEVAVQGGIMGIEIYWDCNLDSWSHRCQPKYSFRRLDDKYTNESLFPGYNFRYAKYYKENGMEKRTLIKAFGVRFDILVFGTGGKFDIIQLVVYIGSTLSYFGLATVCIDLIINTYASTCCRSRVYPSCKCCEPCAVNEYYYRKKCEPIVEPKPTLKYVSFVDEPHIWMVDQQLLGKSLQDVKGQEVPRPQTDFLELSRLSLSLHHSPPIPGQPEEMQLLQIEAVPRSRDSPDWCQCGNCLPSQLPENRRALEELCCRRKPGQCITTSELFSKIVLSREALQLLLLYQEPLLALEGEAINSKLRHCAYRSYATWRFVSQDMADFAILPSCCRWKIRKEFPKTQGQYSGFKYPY
Chain of UniProt O76090 (whole entry, looked up): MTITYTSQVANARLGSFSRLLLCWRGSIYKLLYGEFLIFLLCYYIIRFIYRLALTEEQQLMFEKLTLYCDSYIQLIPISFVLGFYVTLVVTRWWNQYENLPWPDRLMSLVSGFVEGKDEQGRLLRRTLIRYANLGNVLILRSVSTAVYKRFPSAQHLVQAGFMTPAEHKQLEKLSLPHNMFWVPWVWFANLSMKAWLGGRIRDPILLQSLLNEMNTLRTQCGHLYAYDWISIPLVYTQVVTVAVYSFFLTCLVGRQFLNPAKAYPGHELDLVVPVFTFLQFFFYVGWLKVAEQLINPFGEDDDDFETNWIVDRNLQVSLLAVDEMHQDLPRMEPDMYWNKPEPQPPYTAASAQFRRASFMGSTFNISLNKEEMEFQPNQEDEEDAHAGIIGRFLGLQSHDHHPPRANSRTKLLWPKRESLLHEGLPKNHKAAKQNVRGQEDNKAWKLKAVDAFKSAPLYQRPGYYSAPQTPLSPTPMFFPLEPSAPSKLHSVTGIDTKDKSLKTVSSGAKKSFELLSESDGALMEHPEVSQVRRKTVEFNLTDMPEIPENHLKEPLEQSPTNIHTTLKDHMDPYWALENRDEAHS
Chain of UniProt P51589 (whole entry, unmodified, looked up): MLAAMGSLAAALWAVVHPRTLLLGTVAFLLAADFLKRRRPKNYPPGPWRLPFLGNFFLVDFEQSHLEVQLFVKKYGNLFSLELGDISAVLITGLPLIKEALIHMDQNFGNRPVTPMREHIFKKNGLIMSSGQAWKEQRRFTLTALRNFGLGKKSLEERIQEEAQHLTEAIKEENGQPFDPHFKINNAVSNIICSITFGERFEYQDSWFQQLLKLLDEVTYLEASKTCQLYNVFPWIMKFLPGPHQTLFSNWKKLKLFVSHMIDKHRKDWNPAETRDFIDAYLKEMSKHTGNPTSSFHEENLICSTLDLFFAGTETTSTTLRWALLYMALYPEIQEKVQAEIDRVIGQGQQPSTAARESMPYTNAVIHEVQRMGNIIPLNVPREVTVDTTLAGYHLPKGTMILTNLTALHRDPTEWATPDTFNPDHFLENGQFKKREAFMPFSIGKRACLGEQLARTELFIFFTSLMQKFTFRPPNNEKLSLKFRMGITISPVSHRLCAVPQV

CCCCC/C=C\C/C=C\CCCCCCCC(=O)O
Vmax (Cytochrome P450 2J2 (CYP2J2, Homo sapiens, UniProt P51589, L2A); substrate, refers to: total metabolites): 146 ± 17 pmol/min/nmol CYP2J2

Cc1cc(NC(=O)CNC2CCNCC2)n(C2CCS(=O)(=O)C2)n1 (stereo not drawn)
activity (Kir3.1/Kir3.4; activator, thallium flux; HEK293; concentration not given): inactive

O=C(CN1C(=O)S/C(=C\c2ccc(Br)cc2)C1=O)c1ccc([N+](=O)[O-])cc1
Hill slope (AKR1B1; enzyme activity, inhibitor): -0.435

[O-][S+]1CCCCS1 (stereo not drawn)
target engagement (SOD1 (Homo sapiens, UniProt P00441, G94A); intact protein LC-MS; SOD1 G93A transgenic mice, whole blood; intravenous, 10 mg/kg, 2 h, mean of two mice): 55.7%

Cc1cc2nc3[nH]c(=O)[nH]c(=O)c3nc2cc1C
Kd (T1, riboswitch RNA yjdF aptamer A11G/A50G (Bacillus subtilis); fluorescence titration; added: 380 nM lumichrome): 1.4 µM

CC(=O)NCC(=O)NCC(=O)N[C@H](C(=O)N[C@@H](Cc1ccc(O)cc1)C(=O)N[C@@H](CO)C(=O)N[C@H]1CSSC[C@@H](C(=O)N[C@@H](CCCNC(=N)N)C(=O)N2CCC[C@H]2C(=O)N[C@@H](CCC(N)=O)C(=O)N[C@@H](CCCNC(=N)N)C(=O)NCC(=O)NCCC(=O)N[C@@H](CCCCNC(=O)CN(CC(=O)NCCCC[C@H](NC(=O)CCNC(=O)CNC(=O)[C@H](CCCNC(=N)N)NC(=O)[C@H](CCC(N)=O)NC(=O)[C@@H]2CCCN2C(=O)[C@H](CCCNC(=N)N)NC(=O)[C@@H]2CSSC[C@H](NC(=O)[C@H](CO)NC(=O)[C@H](Cc3ccc(O)cc3)NC(=O)[C@@H](NC(=O)CNC(=O)CNC(C)=O)[C@@H](C)O)C(=O)N[C@@H](Cc3c[nH]cn3)C(=O)N[C@@H](Cc3ccccc3)C(=O)NCC(=O)N[C@@H](C)C(=O)N[C@@H](CC(C)C)C(=O)N[C@@H]([C@@H](C)O)C(=O)N[C@@H](Cc3c[nH]c4ccccc34)C(=O)N[C@@H](C(C)C)C(=O)N2)C(N)=O)C(=O)CCN)C(N)=O)NC(=O)[C@H](C(C)C)NC(=O)[C@H](Cc2c[nH]c3ccccc23)NC(=O)[C@H]([C@@H](C)O)NC(=O)[C@H](CC(C)C)NC(=O)[C@H](C)NC(=O)CNC(=O)[C@H](Cc2ccccc2)NC(=O)[C@H](Cc2c[nH]cn2)NC1=O)[C@@H](C)O
kon (Erythropoietin receptor, extracellular domain (Homo sapiens, UniProt P19235); binding, SPR; 1:1 binding model): 6.77e+06 M⁻¹ s⁻¹

CCc1c(C#N)c(NCC(N)=O)nc(SC(C(N)=O)c2ccccc2)c1C#N (stereo not drawn)
Dmax (DNMT1 (Homo sapiens, UniProt P26358); degrader, Western blot; HCT-116; 1 µM, 24 h; relative to: DMSO): < 50%

O=C(c1ccc(C(=O)N2CCC(N3CCCC3)CC2)c(Nc2ccccc2)c1)N1CCC(N2CCCC2)CC1
diffusion coefficient (Lethal(3)malignant brain tumor-like protein 3, MBT domains (Homo sapiens, UniProt Q96JM7); FRAP; human cells; 0.1 µM): 0.311 µm2/s

C=CC(=O)N1CCC(COCC(=O)N2CCN(c3nc(-c4cnc(N)nc4C(F)F)nc(N4CCOC[C@@H]4C)n3)CC2)CC1
remaining binding (PKMYT1 (Homo sapiens, UniProt Q99640); KINOMEscan; 1 µM; relative to: DMSO control): 92%

Cn1c[n+]([C@@H]2O[C@H](COP(=O)(O)OP(=O)([O-])OP(=O)(O)OC[C@H]3O[C@@H](n4cnc5c(=O)[nH]c(N)nc54)[C@H](O)[C@@H]3O)[C@@H](O)[C@H]2O)c2nc(N)[nH]c(=O)c21
hydrolysis (DCPS (Homo sapiens, UniProt Q96C86); substrate, HPLC; concentration not given, 120 min): 100%

CC(/C=C1\SC(=S)N(CC(=O)O)C1=O)=C\c1ccccc1
Hill slope (AKR1B1; enzyme activity, inhibitor): -0.551

CC1=NN(c2ccc(C)cc2)C(=O)C1=NNc1ccc(S(N)(=O)=O)cc1
inhibition (bovine α-glucosidase; enzyme activity, inhibitor, glucose oxidase; 500 µg/mL, added: maltose): 44.4%

O=C(CN1C(=O)S/C(=C\c2ccc(Cl)cc2)C1=O)c1ccc([N+](=O)[O-])cc1
Hill slope (AKR1B1; enzyme activity, inhibitor): -0.608

Nc1ccc(C(=O)O)cc1
current density (BEST1 (Homo sapiens, UniProt O76090); whole-cell patch clamp; HEK293 transiently expressing channel; concentration not given, membrane potential 60 mV): 73 pA/pF and 39.9 pA/pF and 68.1 pA/pF and 52 pA/pF and 45.1 pA/pF and 89.3 pA/pF and 85.8 pA/pF

Nc1ncnc2c1ncn2[C@@H]1O[C@H](CSCC[C@H](N)C(=O)O)[C@@H](O)[C@H]1O
Km (dadD (Methanocaldococcus jannaschii, UniProt Q58936); substrate): 400 ± 100 µM

O=C(COP(=O)(O)O)[C@@H](O)[C@H](O)[C@H](O)COP(=O)(O)O
thermal stability ratio (HDAC2 (Homo sapiens, UniProt Q92769); thermal proteome profiling; HepG2 cell lysate; concentration not given, 57 over 37 °C; relative to: compound over control): 0.471 and 0.455 and 0.591

Nc1ncnc2c1ncn2[C@@H]1O[C@H](COP(=O)(O)CP(=O)(O)OP(=O)(O)O)[C@@H](O)[C@H]1O
calcium influx (P2X purinoceptor 1 (P2RX1, Homo sapiens, UniProt P51575, E122A); calcium influx; 100 µM; relative to: ionomycin response): 94.3% and 95.2% and 89.7%

CNc1cc(Nc2ccc(C(F)(F)F)cc2)n2ncnc2n1
robust Z-score (pyrD; enzyme activity, inhibitor, colorimetric HTS, refers to: DCIP reduction; 3 µM; direction not given): 20.9

COc1cc(Nc2ncc3c(n2)-c2ccc(Cl)cc2C(c2c(F)cccc2OC)=NC3)ccc1C(=O)O
remaining activity (GRK4; kinase activity; 1 µM): 109%

O=C(COc1cc(Cl)ccc1Cl)Nc1cc(C2CC2)nn1C1CCC(F)(F)CC1
Emax (Kir3.1/Kir3.4; thallium flux, activator; HEK293; relative to: standard compound): 31%

C[C@H](CCC(C)(C)O)[C@H]1CC[C@H]2[C@@H]3CC=C4C[C@@](C)(O)CC[C@]4(C)[C@H]3CC[C@]12C
current potentiation (Glutamate NMDA receptor; GRIN1/GRIN2B (GRIN1/GRIN2B, Homo sapiens, UniProt Q05586+Q13224); ion current, positive allosteric modulator, two-electrode voltage clamp; Xenopus oocytes; 10 µM, wild type, added: 1000 µM glutamate, glycine; relative to: absence of compound): 199 ± 12%

NCCCC[C@H](N)C(=O)Nc1ccc2ccccc2c1
Km (rat aminopeptidase III; substrate): 5 µM

CC1=NNC(=S)NC(=O)C1/N=N/c1ccc(S(N)(=O)=O)cc1 (stereo not drawn)
inhibition (bovine α-glucosidase; enzyme activity, inhibitor, glucose oxidase; 500 µg/mL, added: maltose): 36.7%

NCCCC[C@H](N)C(=O)NCC(=O)O
Kd (T2, lysine riboswitch RNA, 2-aminopurine at 17 (Bacillus subtilis); 2-aminopurine fluorescence titration; pH 8.0, 37 °C, apparent): 570 µM

O=C(NC1CCC1)c1ccc2nc(-c3cccc(NS(=O)(=O)NCCN4CCCCC4)c3)cn2c1
remaining activity (GRK4 (Homo sapiens, UniProt P32298); enzyme activity; 10 µM): 100%

Cc1cc(Nc2ccc(S(F)(F)(F)(F)F)cc2)n2ccnc2n1
robust Z-score (pyrD; enzyme activity, inhibitor, colorimetric HTS, refers to: DCIP reduction; 3 µM; direction not given): 25.1

Cc1ccc(C(C)C)cc1O
Hill coefficient (uncharacterized protein (Solanum tuberosum, UniProt M0ZZL3); enzyme activity; inhibitory mode parameter): 1 ± 0.3

Nc1ncnc2c1ncn2[C@@H]1O[C@H](COP(=O)(O)OP(=O)(O)OP(=O)(O)O)[C@@H](O)[C@H]1O
normalized current (P2X purinoceptor 7 (P2rx7, Rattus norvegicus, UniProt Q64663, I214A/R125A); ion current, agonist, two-electrode voltage clamp; Xenopus laevis oocytes; 11 µM; relative to: highest concentration response): 0.0244 and 0.0526 and 0.037

CC(C)OCCn1c(=S)[nH]c(=O)c2[nH]ccc21
H2O2 concentration (MPO; H2O2 consumption, inhibitor, H2O2 electrode; 0.45 µM, 0 s): -36.3 µM

C=CC(=O)N1CCC[C@@H](n2nc(-c3ccc(Oc4ccccc4)cc3)c3c(N)ncnc32)C1
remaining activity (INSRR (Homo sapiens, UniProt P14616); 10 µM): 114%

O=C(Nc1ccccc1OS(=O)(=O)c1ccc(F)cc1)c1ccc2ncccc2c1
fluorescence increase (P2X purinoceptor 4 (P2RX4, Homo sapiens, UniProt Q99571); calcium mobilization; MCF7 stably transfected; 100 µM, added: ATP 100 µM): 81.7 ± 0.11%

c1ccc(-c2n[nH]cc2-c2ccnc3ccccc23)nc1
log2 fold change (CDC28; kinase binding, competitor, MIB/MS competition, refers to: CDC28; Candida albicans cell lysate; 1 µM; relative to: DMSO): 1.44

CC1(C)CC2(C)OC(=O)NC2(C)c2ccccc21 (stereo not drawn)
fold enrichment (Protein transport protein Sec31A (SEC31A, Homo sapiens, UniProt O94979); binding, affinity selection mass spectrometry; relative to: other proteins in batch): 0.895

O=C(Nc1ccc(F)c(Br)c1)c1ccc2c(c1)C(=O)NC2=O
activity recovery time (MAOB (Homo sapiens, UniProt P27338); enzyme activity, reversible inhibitor; concentration not given, 15 min pre-incubation): 72 min

NC/C(=C\F)COc1cccc(Cn2c(=S)[nH]c(=O)c3[nH]cnc32)c1
H2O2 concentration (MPO; H2O2 consumption, inhibitor, H2O2 electrode; 0.028 µM, 0 s): -34.5 µM

c1coc(-c2n[nH]cc2-c2ccnc3ccccc23)c1
log2 fold change (CDC28; kinase binding, MIB/MS competition; Candida albicans lysate; 10 µM; relative to: DMSO, negative = stronger binding): -0.17

Some of these lines once more:
O=C(NC1CCC1)c1ccc2nc(-c3cccc(NS(=O)(=O)NCCN4CCCCC4)c3)cn2c1
remaining activity (GRK4 (Homo sapiens, UniProt P32298); enzyme activity; 10 µM): 100%

C=CC(=O)N1CCC[C@@H](n2nc(-c3ccc(Oc4ccccc4)cc3)c3c(N)ncnc32)C1
remaining activity (INSRR (Homo sapiens, UniProt P14616); 10 µM): 114%

Nc1ncnc2c1ncn2[C@@H]1O[C@H](COP(=O)(O)OP(=O)(O)OP(=O)(O)O)[C@@H](O)[C@H]1O
normalized current (P2X purinoceptor 7 (P2rx7, Rattus norvegicus, UniProt Q64663, I214A/R125A); ion current, agonist, two-electrode voltage clamp; Xenopus laevis oocytes; 11 µM; relative to: highest concentration response): 0.0244 and 0.0526 and 0.037
